Assay results gathered from unrelated publications.
Numbered parts are unrelated; each lists some results of a single study. Positions count from the first letter of the parent shown.

Block 1
Target: ABI1, truncated, D143A, DHFR fusion (Arabidopsis thaliana)
Method: DHFR PCA, deep sequencing
Sample: yeast
Notes: methotrexate growth selection, single substitutions
Added: (+)-ABA 710 µM
Reference: wild-type fitted maximum
Reading: higher = stronger binding
Starting sequence: PYL1, truncated, DHFR fusion (Arabidopsis thaliana); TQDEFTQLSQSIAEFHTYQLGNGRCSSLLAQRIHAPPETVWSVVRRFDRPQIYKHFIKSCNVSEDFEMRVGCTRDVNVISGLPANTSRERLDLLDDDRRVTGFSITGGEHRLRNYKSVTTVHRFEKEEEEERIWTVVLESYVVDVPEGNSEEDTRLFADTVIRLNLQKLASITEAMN; partner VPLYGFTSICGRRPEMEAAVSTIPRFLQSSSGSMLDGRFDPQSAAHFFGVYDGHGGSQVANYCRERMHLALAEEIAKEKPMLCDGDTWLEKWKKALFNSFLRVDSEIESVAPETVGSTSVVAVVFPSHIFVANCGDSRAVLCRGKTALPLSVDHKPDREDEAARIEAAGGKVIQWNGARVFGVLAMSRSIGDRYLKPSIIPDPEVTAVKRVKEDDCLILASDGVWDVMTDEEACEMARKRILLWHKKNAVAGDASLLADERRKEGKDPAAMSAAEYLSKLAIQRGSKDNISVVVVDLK
Change	relative binding score [%]
I33W	2.23
N85Q	104
T39R	104
F15K	70.1
E152R	96.7
D153R	-0.136
L112S	-0.888
L166W	9.58
Y18M	99.1
V40D	-7.53
F56V	42.4
G102E	52.1
T86V	100
Y141E	8.52
Y18L	91.6
S87P	19.8
G23S	98.9

Block 2
Target: RNA binding protein fox-1 homolog 2, RRM domain, GST-SBP tag (RBFOX2, Homo sapiens, UniProt O43251-10, residues 100-194)
Method: RNA Bind-n-Seq
Molecule type: RNA
Sample: in vitro
Tested at: 365 nM
Notes: natural RNA segment, single round, ends assumed
Reference: no-protein control
Reading: higher = stronger binding
Shared flanks, not repeated: GGGAGUUCUACAGUCCGACGAUC … UGGAAUUCUCGGGUGCCAA
Construct (chain): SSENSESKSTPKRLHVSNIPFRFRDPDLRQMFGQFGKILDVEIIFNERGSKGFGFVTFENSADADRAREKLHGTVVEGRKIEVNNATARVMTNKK
Sequence	RBNS enrichment (R)
GGACUGGAUGGAGUGGAGGAGGCCCAGGCCACAGUACCACCCCACCUGCCCAGGCAGCCCCUCGUCACCUACUCCCCGAAGUUACCAGCUCAGCUCGAGUCUUCAGGGCU	0.193
GUGGGGGUGUCCGUCAGUUAUUAGUGGAUGGAGAUUCCCACAGCAAGGCUGCAUUUGAAUGAUUUCCUUAGGAUGAAUGGUCCCUACACAAAGAGGCCUUGUGGGCAAAC	1.54
CUUGCUUGUCUUUAAAUCUUCAAUAUGAAGGACUAUUAAUUCCAAGAUUAAAAGUUCAUAUAUAGGCUAAAGAUGUAACUAGGCCAUUUGUAUUUGUAUUCCCUUUUAUU	0.323
UGCAUUAUAAUUUUAUCCUAACCUCCAAAGAUAUUUGCACUGCUUUUAAUUACUGCUGUAUAUUUGUUGAUUUUGGAGUUACAACUGUGGUGAUAGAAAAUUGAGUUGAU	0.36
AGGACCUCCCCACACACCCACACGAUGCCACAGGUCAGGGGGCUGUGCCUGACUAGGGAGCCCUCCCAUUGCCUUCCUGGCCCGGGAUAGAAGAGGGGAGGUAAGUCUGG	0.574
CUACAUAGAGGCUUUUUCAGCAUUACUGUGUCGUCUCCGUGCCAGAUGUGGCAAGAUCACCAUUAGCAAAUGGAAAUUACAUUUGAAAGCCAUUAGACUUAUAGGUGAUG	0.313
UAUUUUUGUACAAAUAAGGGACUGAUGUUCUGUUUCUUGUUAUUAGAAAUAAACAUUAAUAAAGCGUCUUGGUGUCCUGUCGUGUUUUUUUUUUAAUGCUUGCGCCGAUA	1.54
AUAUAUUCUACUACUAAAGGUAUCAAUGGAACAUGAAGACGAGUAUUUAGGCAGAAGCAAAACAGGAAACCAUCCUUACAAACAUGCUUACCUGCACAUCUGUUUGCAUG	0.687

Block 3
Target: Fragile X messenger ribonucleoprotein 1, C-terminal low-complexity region (Fmr1, Mus musculus, UniProt P35922)
Method: RNA Bind-n-Seq
Molecule type: RNA
Sample: in vitro
Tested at: 200 nM
Notes: whole 134-nt RNA, ends assumed
Added: 150 mM KCl
Reference: input library
Reading: higher = stronger binding
Shared flanks, not repeated: GGGAGUUCUACAGUCCGACGAUC … UGGAAUUCUCGGGUGUCAAGG
Sequence	log2 enrichment
GCAGGAAGUAAAAACAGAUGGAAAUGCUUCGGAUAGUGGCAGGGGUGGGGGUUGCUAAGGAAAGGGUGGGAUGGGAGUGGGUAAAGAGUU	0.669
ACCAUGCAGGUGGGCAUCUUUGGGAAAUGGGGCAAGGGGGGGAUAGGGAGGGGGGUAACACUUUGGGAACAGGUGGUCCCAGGUCGUUUC	0.981
UCAAGUCCUGUGCUACACAUCGUAUGUACCGAAUCGGGCCGGGCCGGGGCCGGGAAAGUAUUAUGUUACGCCGUUCGGAUCUGCACUUCC	0.318
AAGUCCUGUGCUACACAUCGUAUGUACCGAAUCGGGAGGGAAAAAGGGUUUUUGGGAAAGUAUUAUGUUACGCCGUUCGGAUCUGCACUU	0.585
UCAAGUCCUGUGCUACACAUCGUAUGUACCGAAUCGGUGGUUUGGUUUUUUUGGAAAGUAUUAUGUUACGCCGUUCGGAUCUGCACUUCC	-0.483
CCUGUGCUACACAUCGUAUGUACCGAAUCGGGGAAAGGGGUUUUUGGGGAAAAAAAGGGGAAAGUAUUAUGUUACGCCGUUCGGAUCUGC	0.162
ACCAUGCAGGUGGGCAUCUUUGGGAAGUGGGGCAAGGGGGGGAUAGAAAGGGGGGUAACACUUUGGGAACAGGUGGUCCCAGGUCGUUUC	0.499
UCAAGUCCUGUGCUACACAUCGUAUGUACCGAAUCGGAGGAAAGGAAAAAAAGGAAAGUAUUAUGUUACGCCGUUCGGAUCUGCACUUCC	-0.689
GCAGGAAGUAAAAAAAAAUGGAAAUGCUUCGGAUAGUGGCAGGGGUGGGGGUUGCUAAGGAAAGGGUGGGAUGGGAGUGGGUAAAGAGUU	-0.0728

Other studies, line by line
Molecule	target	assay	test system	setting	scale	measurement	result
PhoQ, residues 284 288 289 292 302 303 SACGEM	PhoP, residues 12 14 15 18 19 MHTVL (Escherichia coli, UniProt P23836)	Sort-seq, refers to: YFP reporter	E. coli	PhoQ-PhoP variant library, added: 10 µM Mg2+	reference: high Mg2+ state, higher = stronger signaling	fold induction	18.5
